Assay results collected from several papers.
Every numbered part comes from another study and shows a few of its results, in no order. Substitutions count along the parent as printed.

Block 1
Target: RNA binding protein fox-1 homolog 2, RRM domain, GST-SBP tag (RBFOX2, Homo sapiens, UniProt O43251-10, residues 100-194)
Method: RNA Bind-n-Seq
Molecule type: RNA
Sample: in vitro
Tested at: 365 nM
Notes: natural RNA segment, single round, ends assumed
Baseline: no-protein control
Direction: higher = stronger binding
Shared flanks, not repeated: GGGAGUUCUACAGUCCGACGAUC … UGGAAUUCUCGGGUGCCAA
Target sequence (chain): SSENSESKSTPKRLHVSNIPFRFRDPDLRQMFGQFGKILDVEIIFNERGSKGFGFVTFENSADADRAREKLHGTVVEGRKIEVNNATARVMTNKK
| Oligonucleotide | RBNS enrichment (R) |
| --- | --- |
| CCUGCCUUGCUGUUCCUGGGAAGAUGCCAUAGUUUUCGUUACUGGAUGUUUGGAGUAGAUACUGGUCUGUGAUUGGUGGAAUGGAGAACACACGUGUUGGUGCUUCUGGG | 1.31 |
| CUGCUGUAUAACUCCUUGCCAUGCAAACUCUCAAGAGGCCAAUAUAUUCCUGGCCAUGUUUGAAUGAGCCUCUUAAAAUAAACUUAGAGCCAUGCAAAUGCCAGCAGCUU | 0.392 |
| AAUGGGAUGUGGCCAUGGCAUUGCUAGAAUAUGGUGUGCUUUUAGAACAAAUGUGGCCUUCUCAUGCCAUUUCCAGUAAUGACGCAGAGGAGGACGUGUUGCCUCAGAAC | 0.407 |
| CCAAGUCAUCAAGGCCCCGCUCCUCUCCUCGGAAGGGUCCCCCACCCCCCGGCAGCUUGACACUGAAUCCAGUGUCAAUUUGGGGAGAAAGCAGUUUUGUCUUGGAAUUU | 0.308 |
| ACACCACACCAGCUUGUUGGUUCCUGAUGGUUUUCUUAGACUUCUCCGCUCCCCCCACAUCCCAGCCUGGACUUCUCCUGAGUAUGGGGCUUUUUCUGGCAGCCAGAAGC | 0.279 |
| CCUGUGUUCCCGAGCGCUUCCAGGACUCAUCGUGAGCAGCAGCAUGGAGGCCCCUUCCUGCUGACCUUGCACGCGAGGGAUGCUACUAGGGACUGCUGGGGAUCUUUUCU | 2.76 |
| CCUGCUGUCCCUCACUCACCUGUCACCUGUCACCCUACGGGGACCCACUUGUGGCUUCCCACGUGGUUGUACAUAUUUGUCAUUUAAGAUCUUUCUUCCCGCCGCUUGGC | 0.316 |
| UUCCACUGUGGGAGAAUACCCAUGGAAUAAGAUAAAAAAUUAAUUCCACACCCUAGUGUGUGUAAGUUCCUCGCUCAUAGGAAAUGCAACAGUUUGAGGGAGCAUUGCCC | 0.89 |
| AAGAACAUAAGCUUUCUCGUAUAUACCUGUAUGCUACAGUUUUUCACAUGGAAUUCCGUUUUCUGAGGUACAGCACAUUUUAGGUAACAGUAUUUAACUUGAAAUUCAUC | 0.509 |
| UCAGGUUCCUGUGAUGCAGGCUGACAGCCAGGGAGCACAACAGAUGCUGGACAAAGAUGAAAGCGACCUUCAAGUCUCCCCCCAAGAUGGAACACUCAGUGCCGUAGCCC | 1.08 |
| UAAUCACCACUUCUCGAUGUCUAUUUCAAAUCAAGGCUCCUGAGUAGGGGGUGAAGUGAGCCAGCUUGCACCUCAGGCUAACACAUAGGACUUUGCUCAGCCAUGUCCCC | 0.417 |
| GGGGAGGGGAAGUUCUGAGAAUGGAGUCAUUCUUAGUGUUCAGGUGCUAAAGGUUGUUCUCCUGGGGGAACAGAGUGACUGAAACUGGCUUGUUUGCUACAAGCCCUACC | 0.533 |

Block 2
Target: HLF, bZIP domain (human)
Method: DHFR protein complementation
Sample: yeast
Notes: single substitutions, most at no-binding floor
Baseline: wild-type JUN-FOS pair
Direction: higher = stronger binding
Parent: JUN, bZIP domain (human); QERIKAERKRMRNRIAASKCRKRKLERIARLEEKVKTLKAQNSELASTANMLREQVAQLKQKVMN; partner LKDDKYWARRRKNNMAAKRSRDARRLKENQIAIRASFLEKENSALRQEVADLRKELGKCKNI
| Variant | binding fitness |
| --- | --- |
| L45R | -1.52 natural log |
| A40P | -1.53 natural log |
| L45I | -1.49 natural log |
| N42G | -1.49 natural log |
| T37L | -1.44 natural log |
| L52F | -1.55 natural log |
| Q41S | -1.5 natural log |
| K39S | -1.32 natural log |
| S43R | -1.27 natural log |
| S47I | -1.45 natural log |
| K36G | -1.47 natural log |
| L38I | -1.45 natural log |
| L38R | -1.51 natural log |
| T37K | -1.5 natural log |
| M51S | -1.42 natural log |
| K36C | -1.46 natural log |

Block 3
Target: Histone acetyltransferase KAT6A, both winged helices, GST fusion (KAT6A, Homo sapiens, UniProt Q92794, residues 1-181)
Method: protein binding microarray
Molecule type: double-stranded DNA, one strand shown
Sample: in vitro
Tested at: not given
Notes: 8-mer, flanks averaged, mean of 2 arrays, mostly near background
Baseline: not given
Direction: higher = stronger binding
Residues (chain): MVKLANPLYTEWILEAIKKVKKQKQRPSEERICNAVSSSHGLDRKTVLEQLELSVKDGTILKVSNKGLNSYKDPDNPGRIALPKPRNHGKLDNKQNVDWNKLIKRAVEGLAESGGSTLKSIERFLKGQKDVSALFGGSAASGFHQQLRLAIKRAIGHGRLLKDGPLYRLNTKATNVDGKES
| Oligonucleotide | E-score |
| --- | --- |
| ATCCGGAG | 0.189 |
| GCTACGCC | 0.188 |
| CCTGATAC | -0.115 |
| CTATGACA | 0.027 |
| ATGGTGTG | -0.217 |
| TTGGAAAA | -0.0313 |
| CTCGACCA | -0.18 |
| AAGGGGTG | -0.124 |
| ACTCGTCC | -0.0262 |
| GATCCAGA | -0.0512 |
| CACGGAGC | 0.263 |
| TAGGTGAA | -0.121 |
| AGTTAAGG | -0.11 |
| ATCGCGTA | 0.074 |
| GGAGTGCA | -0.147 |
| CTCTCGTA | -0.156 |

Block 4
Target: Ras GTPase-activating protein-binding protein 1, C-terminal RGG region (G3BP1, Homo sapiens, UniProt Q13283)
Chain of UniProt Q13283 (whole entry, looked up): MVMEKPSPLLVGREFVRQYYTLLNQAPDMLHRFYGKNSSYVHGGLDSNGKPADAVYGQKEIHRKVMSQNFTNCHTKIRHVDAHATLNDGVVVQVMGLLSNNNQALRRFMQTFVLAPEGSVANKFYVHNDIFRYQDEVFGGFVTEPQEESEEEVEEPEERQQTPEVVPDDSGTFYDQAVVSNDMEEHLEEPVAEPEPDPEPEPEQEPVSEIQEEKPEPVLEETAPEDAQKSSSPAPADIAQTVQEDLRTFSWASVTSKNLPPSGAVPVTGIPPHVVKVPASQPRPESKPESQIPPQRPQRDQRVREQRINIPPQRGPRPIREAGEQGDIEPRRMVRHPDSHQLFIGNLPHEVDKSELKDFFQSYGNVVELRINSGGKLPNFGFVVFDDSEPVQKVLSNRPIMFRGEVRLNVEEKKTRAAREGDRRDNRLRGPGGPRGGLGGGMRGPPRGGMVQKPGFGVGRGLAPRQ
Method: RNA Bind-n-Seq
Molecule type: RNA
Sample: in vitro
Tested at: 1 µM
Notes: whole 134-nt RNA, ends assumed
Added: 150 mM KCl
Baseline: input library
Direction: higher = stronger binding
Shared flanks, not repeated: GGGAGUUCUACAGUCCGACGAUC … UGGAAUUCUCGGGUGUCAAGG
| Oligonucleotide | log2 enrichment |
| --- | --- |
| GUCCUGUGCUACACAUCGUAUGUACCGAAUCGGGGUUUUGGGGUUUUGGGGUUUUGGGAAAGUAUUAUGUUACGCCGUUCGGAUCUGCAC | 0.524 |
| CAAGUCCUGUGCUACACAUCGUAUGUACCGAAUCAAACCCAAACCCAAAUUUAAAAAAGUAUUAUGUUACGCCGUUCGGAUCUGCACUUC | -0.8 |
| CUGUGCUACACAUCGUAUGUACCGAAUCGGGGAAAAAAGGGGAAAAAAGGGGAAAAAAGGGGAAAGUAUUAUGUUACGCCGUUCGGAUCU | -0.194 |
| CUCAAGUCCUGUGCUACACAUCGUAUGUACCGAAUCGGAGGAAAAAAAGGUGGAAAGUAUUAUGUUACGCCGUUCGGAUCUGCACUUCCA | -1.32 |
| CCUGUGCUACACAUCGUAUGUACCGAAUCGGGGUUUUUUGGGGUUUUUUGGGUUUUUUGGAAAGUAUUAUGUUACGCCGUUCGGAUCUGC | -1.16 |
| UGUUCACAUUUUAAGGAUGACAAGUCCACUAUAUGUAACACGUAAGAAUGCUAUCCUGGCAGUAGACACAGGGCCAGAAUAAACUGGCAA | -0.987 |
| AGUCCUGUGCUACACAUCGUAUGUACCGAAUCGGGGAGGGGUUUUUUUGGGGAGGGGAAAGUAUUAUGUUACGCCGUUCGGAUCUGCACU | 2.2 |
| CCUGUGCUACACAUCGUAUGUACCGAAUCGGGUUUUUUUGGGGUUUUUUUGGUUUUUUUGGAAAGUAUUAUGUUACGCCGUUCGGAUCUG | -1.16 |
| CUCAAGUCCUGUGCUACACAUCGUAUGUACCGAAUCGGAGGUUUUUUUGGAGGAAAGUAUUAUGUUACGCCGUUCGGAUCUGCACUUCCA | -1.21 |
| GUCCUGUGCUACACAUCGUAUGUACCGAAUCAAACCCCCCCAAAUUUUUAAACCCAAAAAAGUAUUAUGUUACGCCGUUCGGAUCUGCAC | -0.524 |
| ACCAUGCAGGUGGGCAUCUUUGGGAAGGGGGGCAAGGGGGGGAUAGGGAGGGGGGUAACACUUUGGGAACAGGUGGUCCCAGGUCGUUUC | -1.17 |
| CAAGUCCUGUGCUACACAUCGUAUGUACCGAAUCGGUUUGGGUUUGGGGUUUGGGAAAGUAUUAUGUUACGCCGUUCGGAUCUGCACUUC | -0.711 |
| CUCAAGUCCUGUGCUACACAUCGUAUGUACCGAAUCGGAAAAAAAGGUGGAGGAAAGUAUUAUGUUACGCCGUUCGGAUCUGCACUUCCA | -1.24 |
| UAACUUUAGAGGAGGAUCUCAUGGAUAUGGCAGUGGACGUGGAUUUGGGGAUGGCUAUAAUGGGUAUGGAGGAGGACCUGGAGGUGGCAA | -1.15 |

Block 5
Target: Centromere-binding protein 1, full length, N-terminal tag (CBF1, Saccharomyces cerevisiae, UniProt P17106, residues 1-351)
Chain of UniProt P17106 (whole entry, looked up): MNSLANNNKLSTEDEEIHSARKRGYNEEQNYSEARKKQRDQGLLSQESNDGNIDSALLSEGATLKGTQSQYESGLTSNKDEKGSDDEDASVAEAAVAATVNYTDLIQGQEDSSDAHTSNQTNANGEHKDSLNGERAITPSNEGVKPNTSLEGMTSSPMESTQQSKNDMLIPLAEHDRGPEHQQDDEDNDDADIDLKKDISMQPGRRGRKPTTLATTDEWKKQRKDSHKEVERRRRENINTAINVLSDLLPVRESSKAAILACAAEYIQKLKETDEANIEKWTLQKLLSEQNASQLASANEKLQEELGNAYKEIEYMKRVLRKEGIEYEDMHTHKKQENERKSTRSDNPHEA
Method: protein-binding microarray
Molecule type: double-stranded DNA, one strand shown
Sample: in vitro
Tested at: 0.8 µM
Notes: whole 60-bp probe, no competitor
Direction: higher = stronger binding
Shared flanks, not repeated: … GTCTTGATTCGCTTGACGCTGCTG
| Oligonucleotide | fluorescence intensity [a.u.] |
| --- | --- |
| GAAAGCAACAATACTAACGTGGAACTTATTTCGTAG | 516 |
| CTAGCATATCAAAATCACGTATTGACTATGACATTC | 617 |
| TGTACGAAGCTATAACACGTACCTATAGTAGTTAGG | 512 |
| GAAATATTGTTTCACCTGTTCATCTTTAATAGATAG | 608 |
| GAAGTAAGCGTGGTCGGTGTGATTTTATTAGTTTAG | 555 |
| GAAGAAGATCCAATCATCACCATTGCGCGATCATAG | 491 |
| GAATATATACAACATCATGCTCTTAAAAGAATATAG | 576 |
| GAATCTCAAATTTTTCACGCGATGAGGAGACAATAG | 601 |
| CTAACGCAATATTTCTACGTGATATCTATAAAATTC | 636 |
| CTATAATATCATGAACAGGTGATAGTAGAATGTTTC | 1160 |
| CTATTCACTGCAATCAACACCACCATGCAAACATTC | 584 |
| CTAGTGATAACCTAAAATAGTCACAAACCAATGTTC | 585 |
| GAATCTTTATCTTGAATGGTGATGACAATAGAGTAG | 641 |
| GAAAGGTTTATATTCGACGTGATTTTTTTTTCTTAG | 611 |
| GAAAGTCACTTTAACCACGAGGGGAAAAAACACTAG | 719 |
| GAACACGGGATTTGTCACGCAGCGGATTTATTTTAG | 892 |
